Experimental data collected from several papers.
Compare with care: the assays were run in different laboratories. Several values in a cell are separate wells, animals, samples, runs or records.
gag-pol reverse transcriptase: Gag-Pol polyprotein, reverse transcriptase (gag-pol, Human immunodeficiency virus 1, UniProt P03366)
PRKAA2 with beta1 gamma1: 5'-AMP-activated protein kinase catalytic subunit alpha-2, with beta1 gamma1 (PRKAA2, Homo sapiens, UniProt P54646)
ACTA1 pyrene-labeled: Actin, alpha skeletal muscle, pyrene-labeled (ACTA1, Oryctolagus cuniculus, UniProt P68135)
Voltage-dependent P/Q-type calcium channel subunit alpha-1A: Voltage-dependent P/Q-type calcium channel subunit alpha-1A (Homo sapiens, UniProt O00555)

With O=C1CSC(c2ccc(Cl)cc2)N1c1cccc(S(=O)(=O)Nc2nccs2)c1 (centres unmarked) the inhibition was 35.3% (gag-pol reverse transcriptase; 4 µM).
For c1ccc(C(NCCNC(c2ccccc2)c2ccccc2)c2ccccc2)cc1, the inhibition was 4% (Ca2+/calmodulin-dependent protein kinase II (rat); Eurofins selectivity panel; 10 µM).
O=C1CSC(c2ccc(F)cc2)N1c1cccc(S(=O)(=O)Nc2nccs2)c1 (centres unmarked) has an inhibition of 68.3% (gag-pol reverse transcriptase; 4 µM).
CCN(Cc1ccccc1C(F)(F)F)C(=O)C1CCN(S(=O)(=O)c2ccc3[nH]ncc3c2)CC1 has an inhibition of 8% (rat NMDA receptor; radioligand binding; 10 µM, phencyclidine site).
With COc1cc(Nc2ncc(F)c(Nc3ccc4c(n3)NC(=O)C(C)(C)O4)n2)cc(OC)c1OC the inhibition was 2% (Cyclin-dependent kinase 15 (CDK15, Homo sapiens, UniProt Q96Q40); kinase binding, KINOMEscan; 10 µM).
The inhibition of O=C1CSC(c2cccc(F)c2)N1c1nc(-c2ccc(S(=O)(=O)N3CCOCC3)cc2)cs1 (centres unmarked) is reported as 3.7% (gag-pol reverse transcriptase; 4 µM).
C#Cc1n[nH]c2c(-c3cn([C@@H](C)c4ccccc4)c(=O)[nH]c3=O)cc(F)cc12 gave an inhibition of 0.9% (PRKAA2 with beta1 gamma1; kinase activity, inhibitor; 100 nM).
The inhibition of CN1CCN(c2cc(-c3ccncc3)c(-c3ccc4ccccc4c3)nn2)CC1 is reported as 12.2% (C-C chemokine receptor type 2 (CCR2, Homo sapiens, UniProt P41597); 10 µM).
For O=C(Nc1cccnn1)N1CCC(=Cc2cccc(Oc3ccc(C(F)(F)F)cn3)c2)CC1, the inhibition was -6% (Vitamin D3 receptor (VDR, Homo sapiens, UniProt P11473); radioligand binding, inhibitor; 50 µM, human, together with: [3H]1alpha,25-dihydroxyvitamin D3).
With O=C1CSC(c2cccc(Br)c2)N1c1nc(-c2ccc(S(=O)(=O)N3CCCC3)cc2)cs1 (centres unmarked) the inhibition was 12.6% (gag-pol reverse transcriptase; 4 µM).
The inhibition of CO[C@]1([C@@H]2CSC(=O)N2C(=O)c2ccccc2)C[C@H]2C[C@@H](CC[C@H](C)/C=C\C=C\CC/C(C)=C\C(=O)O2)O1 is reported as 53% (ACTA1 pyrene-labeled; actin polymerization, pyrene actin; 1 µM; relative to: vehicle).
With O=C1CSC(c2ccc(F)cc2)N1c1nc(-c2ccc(S(=O)(=O)N3CCOCC3)cc2)cs1 (centres unmarked) the inhibition was 12% (gag-pol reverse transcriptase; 4 µM).
The inhibition of COC1(C2CSC(=O)N2)CC2CC(CCC(C)C=CC=CCCC(C)=CC(=O)O2)O1 (centres unmarked) is reported as 6% (ACTA1 pyrene-labeled; actin polymerization, pyrene actin; 0.1 µM; relative to: vehicle).
With CC[C@H](C)[C@H](NC(=O)[C@@H](NC(=O)[C@H](N)Cc1ccccc1)C(C)C)C(=O)N[C@@H](C)C(N)=O the inhibition was 46.8% (Amyloid-beta precursor protein (APP, Homo sapiens, UniProt P05067); amyloid-beta aggregation, thioflavin T fluorescence; 0.5 µM, 168 h, together with: 2 µM amyloid-beta).
The inhibition of CN(C(=O)n1cnc(-c2ccc[n+]([O-])c2)c1)C1CCCCC1 is reported as -1% (Estrogen receptor beta (ESR2, Homo sapiens, UniProt Q92731); radioligand binding; 10 µM, together with: [3H]estradiol).
For C/C1=C/C(=O)O[C@@H]2C[C@@H](CC[C@H](C)/C=C\C=C\CC1)O[C@@](OCCc1ccccc1)([C@@H]1CSC(=O)N1)C2, the inhibition was 31% (ACTA1 pyrene-labeled; actin polymerization, pyrene actin; 0.1 µM; relative to: vehicle).
With COc1ccc(N2C(=O)N(c3c(C)cccc3Cl)Cc3cnc(Nc4ccc(C5CCN(C)CC5)cc4OC)nc32)nc1 the inhibition was 2.5% (Mitogen-activated protein kinase 9 (MAPK9, Homo sapiens, UniProt P45984); kinase activity, inhibitor; 0.5 µM, kinase JNK2).
The inhibition of CCN(C)C(=O)Oc1cccc([C@H](C)N(C)C)c1 is reported as 2% (Voltage-dependent P/Q-type calcium channel subunit alpha-1A; ion current, antagonist; HEK293; 3 µM).
COCc1c(-c2cc3cc(C)cc(OC)c3s2)c2c(N)ncnn2c1CN1CCNC(=O)C1 gave an inhibition of 5% (Sodium/potassium-transporting ATPase subunit alpha-1 (ATP1A1, Sus scrofa, UniProt P05024); enzyme activity; pig enzyme; 10 µM).
C#Cc1n[nH]c2c(-c3cn([C@@H](C)c4ccccn4)c(=O)[nH]c3=O)cc(F)cc12 gave an inhibition of 4% (PRKAA2 with beta1 gamma1; kinase activity, inhibitor; 100 nM).
With O=C(Nc1cccnn1)N1CCN([C@@H]2CCOc3cc(C(F)(F)F)ccc32)CC1 the inhibition was 0% (CHRNA1/CHRNB1/CHRND (Homo sapiens, UniProt P02708+P11230+Q07001); binding; 20 µM, muscle-type nicotinic receptor).
The inhibition of N.N.O=C([O-])C1(C(=O)[O-])CCC1.[Pt+2] is reported as 17% (Voltage-dependent P/Q-type calcium channel subunit alpha-1A; antagonist; 30 µM).
For O=C(Nc1cnccc1Cl)N1CCN(Cc2ccc3c(c2)OC(F)(F)O3)CC1, the inhibition was 0% and 8% (Gonadotropin-releasing hormone receptor (GNRHR, Homo sapiens, UniProt P30968); radioligand binding; concentration not given).
Cc1ncc(C)n2nc(/C=C/c3nc(N4CCCC4)cc(N4CCOCC4)n3)nc12 has an inhibition of 1% (Soluble guanylate cyclase alpha1/beta1 complex (Homo sapiens, UniProt Q02108+Q02153); enzyme activity; 10 µM).
With CC(=O)c1c(O)c(C)c(O)c(Cc2c(O)c3c(c(C(=O)/C=C/c4ccccc4)c2O)OC(C)(C)C=C3)c1O the inhibition was 86.4% (Thioredoxin reductase 1, cytoplasmic (Txnrd1, Rattus norvegicus, UniProt O89049); enzyme activity, inhibitor; 20 µM, 30 min, pH 7.5).
O=c1ccc2ccccc2o1 has an inhibition of 0.416% (Cholecystokinin receptor type A (CCKAR, Homo sapiens, UniProt P32238); radioligand binding; 10 µM).
The inhibition of CN(CCN1CCC(OC(=O)Nc2ccccc2-c2ccccc2)CC1)C(=O)c1ccc(CN2CCC(C(N)=O)CC2)cc1 is reported as -20% (rat TRH receptor; radioligand binding; 1 µM, together with: [3H]Me-TRH 2.0 nM).
Cn1cc(-c2cc(F)cc(N3CCn4c(cc5c4CCCC5)C3=O)c2CO)cc(Nc2ccc(N3CCN(C4COC4)CC3)cn2)c1=O gave an inhibition of 5% (Protein kinase C beta type, isoform beta-II (PRKCB, Homo sapiens, UniProt P05771); kinase activity, inhibitor, SelectScreen kinase profiling; 0.1 µM, together with: ATP at apparent Km).
C/C1=C/C(=O)O[C@@H]2C[C@@H](CC[C@H](C)/C=C\C=C\CC1)O[C@@](O)([C@@H]1CSC(=O)N1Cc1ccccc1)C2 has an inhibition of 24% (ACTA1 pyrene-labeled; actin polymerization, pyrene actin; 0.1 µM; relative to: vehicle).
For NC(=O)CC[C@H](NC(=O)[C@@H]1CCCN1C(=O)[C@H](CCC(N)=O)NC(=O)[C@@H]1CCCN1C(=O)[C@@H](N)Cc1ccc(O)cc1)C(=O)O, the inhibition was 67.8% (Dipeptidyl peptidase 4 (DPP4, Homo sapiens, UniProt P27487); inhibitor; 50 µM, 20 min, pH 8.0, 37 °C, together with: Gly-Pro-pNA 500 µM).
CCN1C(=O)SC[C@H]1[C@@]1(O)C[C@H]2C[C@@H](CC[C@H](C)/C=C\C=C\CC/C(C)=C\C(=O)O2)O1 gave an inhibition of 32% (ACTA1 pyrene-labeled; actin polymerization, pyrene actin; 0.1 µM; relative to: vehicle).
Cn1cccc1-c1cccnc1 gave an inhibition of 1.65% (Muscarinic acetylcholine receptor M1 (CHRM1, Homo sapiens, UniProt P11229); binding; 50 µM).
O=C1CSC(c2cccc(Br)c2)N1c1cccc(S(=O)(=O)Nc2nccs2)c1 (centres unmarked) has an inhibition of 45.3% (gag-pol reverse transcriptase; 4 µM).
The inhibition of CO[C@]1([C@@H]2CSC(=O)N2C2CCCC2)C[C@H]2C[C@@H](CC[C@H](C)/C=C\C=C\CC/C(C)=C\C(=O)O2)O1 is reported as 49% (ACTA1 pyrene-labeled; actin polymerization, pyrene actin; 1 µM; relative to: vehicle).
With Cn1cc(-c2cccc(N3CCc4c(sc5c4CC(C)(C)C5)C3=O)c2CO)cc(Nc2ccncn2)c1=O the inhibition was 6% (Platelet-derived growth factor receptor alpha (PDGFRA, Homo sapiens, UniProt P16234, V561D); kinase activity; 1 µM).
